# Published values from different studies.
# A part holds a random share of what one study measured. Positions count from the first letter of the parent shown.

# Set 1
# Target: CCNB3, cyclin fold, Cln2 fusion (human)
# Technique: yeast growth competition, sequencing
# Sample: yeast
# Notes: weak parent motif
# Relative to: not given
# Reading: higher = stronger binding
# Starting sequence: PKMYT1 docking peptide (human); SFEPRNLLSLFED
Change,normalised enrichment score
R5P,0.239
L10P,0.346
L7C,0.666
S1D,0.434
D13M,0.568
L10H,0.648
E12C,0.566
R5A,0.499
S9Q,0.62
D13K,0.359
L7W,0.302
P4S,0.243
D13E,0.0736
P4M,0.549
P4D,0.446

# Set 2
# Target: Interferon regulatory factor 5, full length, phosphomimetic (IRF5, Homo sapiens, UniProt Q13568-2, residues 1-514, K96S/S451D/S453D/S456D/S462D)
# Technique: protein-binding microarray
# Molecule type: double-stranded DNA, one strand shown
# Sample: in vitro
# Tested at: 250 nM
# Notes: 60-bp whole probe
# Together with: salmon DNA 0.4 mg/ml
# Relative to: random background probes
# Reading: higher = stronger binding
# Constant ends, left off below: GCCTAGCAC … GTCTTGATTCGCTTGACGCTGCTG
Strand,log fluorescence [z-score]
TTAGGTTTCCTTATCCTTCAGTGCTAG,0.999
GACGATTTCGGGTATCGATACGTGCTA,7.33
TTAGATCTCAGTTTCTATTAGTGCTAG,3.45
GACGGTATCCTTATCTTGACGTGCTAG,0.174
TTAGGATTCGGTTCCGGTTAGTGCTAG,1.95
TTAGATATCAGTCTCTATTAGTGCTAG,1.57
GACGATATCAGTCCCGAGACGTGCTAG,0.792
GACGGACTGGGTTTCGGTACGTGCTAG,6.73
TCAAGGTTCAAGTTTACCACTGTGCTA,-0.16
TGAGTCTTCCCTTTTAAGTTGTGCTAG,0.308
TTATAACTGGGGTTTCGATTAGTGCTA,6.18
TTAGGTCTCGGACTGAGTTAGTGCTAG,-0.195
TTAGATTTCAGCTTCGATTAGTGCTAG,1.76
GACGGTTTCGGTTTCGGGACGTGCTAG,10.3
TTAGAATTCGGGTATCGATTAGTGCTA,4.19
GACGGTTTCTGTCTCGGGACGTGCTAG,2.93
AATCATTTTCGTTTTTATTAGTGCTAG,7.68

# Set 3
# Target: PABPC1L2, full length, GST fusion (mouse, UniProt A0ABA7IW68)
# Technique: RNAcompete
# Molecule type: RNA
# Sample: in vitro
# Tested at: 20 nM
# Notes: 7-mer, probes averaged, single round
# Relative to: mean of 7-mers
# Reading: higher = stronger binding
# Construct (chain): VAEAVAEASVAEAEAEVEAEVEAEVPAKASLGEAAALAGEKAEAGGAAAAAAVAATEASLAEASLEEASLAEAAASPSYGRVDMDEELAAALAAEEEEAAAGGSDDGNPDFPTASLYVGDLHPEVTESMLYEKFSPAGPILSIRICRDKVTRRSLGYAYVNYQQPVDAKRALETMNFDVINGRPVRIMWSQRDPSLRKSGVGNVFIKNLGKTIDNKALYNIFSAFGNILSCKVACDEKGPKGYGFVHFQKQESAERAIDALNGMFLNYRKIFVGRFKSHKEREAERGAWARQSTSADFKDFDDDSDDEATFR
Strand,7-mer Z-score
GGUCUGG,0.137
GUCACAA,0.0678
AUACGCG,-0.0826
AUGAGGC,0.2
AGUUGUA,-0.157
GGCUUUC,-0.237
ACUAAUA,-0.0826
UUCUACA,-0.228
CGCUGAG,-0.0627
AAUAUCU,0.066
GGGGAUA,0.428
GAAAGAU,1.06
UCCACUA,-0.286
UGACUCC,-0.0772
GGGCAAU,0.403
GCCUUGG,-0.282
AGACUUC,-0.228
UCGGCGG,-0.0609
CUUUCGG,-0.344
ACCUACG,-0.155
AUGCCCC,-0.142

# Set 4
# Target: Sal-like protein 4, full length isoform B (SALL4, Homo sapiens, UniProt Q9UJQ4-2, residues 1-616)
# Technique: universal PBM
# Molecule type: double-stranded DNA, one strand shown
# Sample: in vitro
# Tested at: not given
# Notes: 8-mer, flanks averaged, mean of replicates
# Reading: higher = stronger binding
# Residues (chain): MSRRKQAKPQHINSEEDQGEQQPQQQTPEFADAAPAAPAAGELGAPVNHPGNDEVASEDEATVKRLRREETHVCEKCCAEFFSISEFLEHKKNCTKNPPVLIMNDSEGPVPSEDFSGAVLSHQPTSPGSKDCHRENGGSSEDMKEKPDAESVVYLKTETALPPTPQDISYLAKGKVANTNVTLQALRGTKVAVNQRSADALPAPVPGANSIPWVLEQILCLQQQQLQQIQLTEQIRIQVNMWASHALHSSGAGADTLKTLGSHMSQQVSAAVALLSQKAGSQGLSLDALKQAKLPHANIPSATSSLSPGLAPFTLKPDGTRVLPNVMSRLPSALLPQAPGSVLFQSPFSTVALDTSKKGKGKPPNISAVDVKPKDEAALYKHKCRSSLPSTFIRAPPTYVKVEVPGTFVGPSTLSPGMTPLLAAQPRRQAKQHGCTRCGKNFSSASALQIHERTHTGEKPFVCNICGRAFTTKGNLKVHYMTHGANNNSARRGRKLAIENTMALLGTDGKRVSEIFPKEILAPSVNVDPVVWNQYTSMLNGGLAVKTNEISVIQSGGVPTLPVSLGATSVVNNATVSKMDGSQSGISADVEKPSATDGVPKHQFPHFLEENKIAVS
Strand,E-score
CGACGTAC,-0.0905
TCCGATCA,-0.018
CTGAACAC,-0.0625
CCTCGCAG,-0.215
CTATCAGA,-0.0667
AAAGGGGT,-0.0276
ACTCTAGG,-0.174
CAATATTC,0.242
AACGTCAA,0.23
CAATAGAC,0.149
CCGCGCTC,-0.203
AATTGGGC,0.00717
TCGAAAAA,0.266
CCTCAAGG,-0.167
TCCTCGAA,-0.0652
ACGGTTCT,-0.137
GATGAGAA,0.00947
ATCTCACG,-0.103
AGTAGAGC,-0.0604
AATCCCAG,-0.0729
CACCGGTA,-0.222

# Set 5
# Target: Ras GTPase-activating protein-binding protein 1, full length (G3BP1, Homo sapiens, UniProt Q13283)
# UniProt Q13283, sequence (whole entry, looked up): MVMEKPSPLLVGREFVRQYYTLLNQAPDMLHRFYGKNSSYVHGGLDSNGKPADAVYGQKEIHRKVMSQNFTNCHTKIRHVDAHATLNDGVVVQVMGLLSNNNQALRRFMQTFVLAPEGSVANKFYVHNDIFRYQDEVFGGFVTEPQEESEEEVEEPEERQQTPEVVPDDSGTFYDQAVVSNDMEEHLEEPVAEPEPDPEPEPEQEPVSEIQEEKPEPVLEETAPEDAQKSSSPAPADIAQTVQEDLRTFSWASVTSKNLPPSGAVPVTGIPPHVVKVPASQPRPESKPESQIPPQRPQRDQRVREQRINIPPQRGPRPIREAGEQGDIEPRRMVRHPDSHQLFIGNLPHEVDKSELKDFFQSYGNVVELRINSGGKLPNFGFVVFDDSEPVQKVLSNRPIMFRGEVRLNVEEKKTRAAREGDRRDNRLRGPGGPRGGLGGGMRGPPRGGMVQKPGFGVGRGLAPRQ
# Technique: RNA Bind-n-Seq
# Molecule type: RNA
# Sample: in vitro
# Tested at: 200 nM
# Notes: whole 134-nt RNA, ends assumed
# Together with: 150 mM LiCl
# Relative to: input library
# Reading: higher = stronger binding
# Each molecule: 7-deaza-guanosine replaces G
# Constant ends, left off below: GGGAGUUCUACAGUCCGACGAUC … UGGAAUUCUCGGGUGUCAAGG
Strand,log2 enrichment
UCCUGUGCUACACAUCGUAUGUACCGAAUCGGGUUUUUUUGGGUUUGGGAAAAAAAGGGAAAGUAUUAUGUUACGCCGUUCGGAUCUGCA,-0.511
CAAGUCCUGUGCUACACAUCGUAUGUACCGAAUCGGAAAGGUUUGGAAAAAAAGGAAAGUAUUAUGUUACGCCGUUCGGAUCUGCACUUC,-1.14
CCUGUGCUACACAUCGUAUGUACCGAAUCGGGCCCCCCCGGCCCCCCCGGCCCCCCCGGGGAAAGUAUUAUGUUACGCCGUUCGGAUCUG,-0.0195
UGGCCCUGGUGGCAUGCGGGGAUGAAGAGGUGGCCUCAUGGAUCGUGGUGGUCCCGGUGGAAUGUUCAGAGGUGGCCGUGGUGGAGACAG,0.161
UGGGAGGUGGAUUUUGUUUAUUUUUUUAGCUCAUUUCCAGGGGUGGGAAUUUUUUUUUAAUAUGUGUCAUGAAUAAGGUUGUUUUUGAAA,-0.0591
UGGGAGGUGGAUUUUGUUUAUUUUUUUAGCUCAUUUCCAGGGGUGGGAAUUUUUUUUUAAUAUGUGUCAUGAAUAAAGUUGUUUUUGAAG,-0.367
UGGCUUCGAAGUACAGUCUUUGCAGGAUGCAGGAAAUCAGCUUGGUAUGGAGGAUACAUCUCUGAGCUCUGGAAUGCUCACCCAGAACAC,-2.12
GUCCUGUGCUACACAUCGUAUGUACCGAAUCGGGUUUUUUGGUUUUUUGGGUUUUUUGGAAAGUAUUAUGUUACGCCGUUCGGAUCUGCA,-0.77
UCAAGUCCUGUGCUACACAUCGUAUGUACCGAAUCGGCCGGGGCCGGGGCCGGGAAAGUAUUAUGUUACGCCGUUCGGAUCUGCACUUCC,-0.197
AAGUCCUGUGCUACACAUCGUAUGUACCGAAUCGGGUUUGGGAGGGUUUUUUUGGGAAAGUAUUAUGUUACGCCGUUCGGAUCUGCACUU,-0.0247
UGGGAGGUGGAUUUUGUUUAUUUUUUUAGCUCAUUUCCAGGGGUGGGAAUUUUUUUUUAAUAUCUGUCAUGAAUAAAGUUGUUUUUGAAA,-0.243

# Set 6
# Target: ABI1, truncated, D143A, DHFR fusion (Arabidopsis thaliana)
# Technique: DHFR PCA, deep sequencing
# Sample: yeast
# Notes: methotrexate growth selection, single substitutions
# Together with: (+)-ABA 0.0091 µM
# Relative to: wild-type fitted maximum
# Reading: higher = stronger binding
# Starting sequence: PYL1, truncated, DHFR fusion (Arabidopsis thaliana); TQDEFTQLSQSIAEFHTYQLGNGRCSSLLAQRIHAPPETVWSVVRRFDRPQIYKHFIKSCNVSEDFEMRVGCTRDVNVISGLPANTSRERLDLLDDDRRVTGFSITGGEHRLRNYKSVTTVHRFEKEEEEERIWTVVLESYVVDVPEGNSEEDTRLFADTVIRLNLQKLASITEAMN
Change,relative binding score [%]
G21H,15.8
V78C,30.8
S117Q,-4.59
E152C,4.14
I105Q,0.937
E14Y,0.0916
T160Q,3.76
F47K,0.289
Q31F,1.19
F15L,1.64
T160N,-0.53
H110W,98.8
T173K,-8.58
R69Y,0.772
T173F,-1.68
D95W,-6.2
R90D,-5.68
A158M,17.2
Y141L,-2.2
I79R,-1.37

# Some of these lines once more (set 2):
Strand,log fluorescence [z-score]
TTAGAATTCGGGTATCGATTAGTGCTA,4.19
AATCATTTTCGTTTTTATTAGTGCTAG,7.68
TTAGATTTCAGCTTCGATTAGTGCTAG,1.76
TTAGGTCTCGGACTGAGTTAGTGCTAG,-0.195
TTAGATCTCAGTTTCTATTAGTGCTAG,3.45
GACGGACTGGGTTTCGGTACGTGCTAG,6.73
GACGATTTCGGGTATCGATACGTGCTA,7.33
TTAGGATTCGGTTCCGGTTAGTGCTAG,1.95
